Published values gathered from unrelated publications.
Parts stem from different laboratories: compare values within a part only.
Sequence of UniProt Q99755 (whole entry, looked up): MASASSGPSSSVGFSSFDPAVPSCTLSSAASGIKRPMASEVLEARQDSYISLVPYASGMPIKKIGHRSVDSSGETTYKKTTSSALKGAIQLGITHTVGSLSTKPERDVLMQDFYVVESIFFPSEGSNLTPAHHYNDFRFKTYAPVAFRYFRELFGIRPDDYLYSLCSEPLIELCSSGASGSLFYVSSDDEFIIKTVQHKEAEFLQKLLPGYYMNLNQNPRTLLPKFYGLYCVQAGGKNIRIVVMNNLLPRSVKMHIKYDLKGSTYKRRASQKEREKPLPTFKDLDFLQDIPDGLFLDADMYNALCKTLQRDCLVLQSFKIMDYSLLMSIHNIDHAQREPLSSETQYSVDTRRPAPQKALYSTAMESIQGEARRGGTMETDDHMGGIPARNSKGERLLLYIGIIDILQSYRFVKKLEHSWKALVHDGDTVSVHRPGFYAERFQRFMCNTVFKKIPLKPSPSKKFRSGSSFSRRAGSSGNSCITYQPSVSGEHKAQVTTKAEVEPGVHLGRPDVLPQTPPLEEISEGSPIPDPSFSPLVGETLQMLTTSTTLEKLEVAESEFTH
Sequence of UniProt P54760 (whole entry, looked up): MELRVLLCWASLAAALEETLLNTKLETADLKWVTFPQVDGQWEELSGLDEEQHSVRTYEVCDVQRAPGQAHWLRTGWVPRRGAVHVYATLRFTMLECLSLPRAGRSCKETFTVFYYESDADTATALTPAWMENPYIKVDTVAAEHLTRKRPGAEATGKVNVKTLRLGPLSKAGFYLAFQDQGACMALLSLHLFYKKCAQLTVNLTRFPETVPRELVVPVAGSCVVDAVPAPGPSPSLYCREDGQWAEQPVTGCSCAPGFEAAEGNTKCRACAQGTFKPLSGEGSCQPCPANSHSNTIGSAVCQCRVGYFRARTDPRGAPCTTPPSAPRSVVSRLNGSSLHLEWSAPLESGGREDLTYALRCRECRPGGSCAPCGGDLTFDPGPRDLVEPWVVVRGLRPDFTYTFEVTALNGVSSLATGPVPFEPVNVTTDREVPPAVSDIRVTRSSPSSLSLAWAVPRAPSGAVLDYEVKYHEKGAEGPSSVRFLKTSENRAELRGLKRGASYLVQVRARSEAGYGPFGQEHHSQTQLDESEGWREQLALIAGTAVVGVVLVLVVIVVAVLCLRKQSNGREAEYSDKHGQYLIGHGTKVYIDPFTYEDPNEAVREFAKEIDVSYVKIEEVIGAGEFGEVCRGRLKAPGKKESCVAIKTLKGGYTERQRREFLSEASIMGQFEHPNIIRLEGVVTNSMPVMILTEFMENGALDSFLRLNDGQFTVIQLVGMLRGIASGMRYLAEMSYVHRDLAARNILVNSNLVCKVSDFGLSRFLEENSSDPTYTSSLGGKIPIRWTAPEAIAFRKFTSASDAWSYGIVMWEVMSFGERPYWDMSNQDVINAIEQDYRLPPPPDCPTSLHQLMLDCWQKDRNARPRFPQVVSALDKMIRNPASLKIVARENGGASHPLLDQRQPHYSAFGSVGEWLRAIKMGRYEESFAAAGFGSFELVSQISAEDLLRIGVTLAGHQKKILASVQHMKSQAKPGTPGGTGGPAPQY
Sequence of UniProt P22607 (whole entry, looked up): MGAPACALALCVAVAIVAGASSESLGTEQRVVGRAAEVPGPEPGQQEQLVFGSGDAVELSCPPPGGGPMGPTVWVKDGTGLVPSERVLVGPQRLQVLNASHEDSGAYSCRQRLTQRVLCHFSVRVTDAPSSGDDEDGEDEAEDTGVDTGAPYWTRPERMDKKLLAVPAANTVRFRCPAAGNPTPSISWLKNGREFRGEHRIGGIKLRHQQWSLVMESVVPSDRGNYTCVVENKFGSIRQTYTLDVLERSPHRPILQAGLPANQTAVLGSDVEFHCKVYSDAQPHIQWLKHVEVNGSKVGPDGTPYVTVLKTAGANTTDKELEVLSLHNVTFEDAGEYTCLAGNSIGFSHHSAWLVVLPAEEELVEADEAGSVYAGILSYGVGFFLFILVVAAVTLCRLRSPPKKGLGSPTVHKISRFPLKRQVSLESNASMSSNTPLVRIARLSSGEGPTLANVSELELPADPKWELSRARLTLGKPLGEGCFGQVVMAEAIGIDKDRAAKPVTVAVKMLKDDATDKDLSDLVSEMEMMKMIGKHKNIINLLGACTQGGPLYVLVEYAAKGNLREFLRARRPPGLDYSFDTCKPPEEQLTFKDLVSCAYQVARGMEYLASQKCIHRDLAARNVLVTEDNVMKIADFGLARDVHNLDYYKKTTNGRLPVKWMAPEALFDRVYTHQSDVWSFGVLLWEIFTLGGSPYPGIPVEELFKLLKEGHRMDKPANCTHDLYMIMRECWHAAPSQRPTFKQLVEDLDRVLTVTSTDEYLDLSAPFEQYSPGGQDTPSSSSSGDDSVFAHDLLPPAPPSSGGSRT
Sequence of UniProt P00519 (whole entry, unmodified, looked up): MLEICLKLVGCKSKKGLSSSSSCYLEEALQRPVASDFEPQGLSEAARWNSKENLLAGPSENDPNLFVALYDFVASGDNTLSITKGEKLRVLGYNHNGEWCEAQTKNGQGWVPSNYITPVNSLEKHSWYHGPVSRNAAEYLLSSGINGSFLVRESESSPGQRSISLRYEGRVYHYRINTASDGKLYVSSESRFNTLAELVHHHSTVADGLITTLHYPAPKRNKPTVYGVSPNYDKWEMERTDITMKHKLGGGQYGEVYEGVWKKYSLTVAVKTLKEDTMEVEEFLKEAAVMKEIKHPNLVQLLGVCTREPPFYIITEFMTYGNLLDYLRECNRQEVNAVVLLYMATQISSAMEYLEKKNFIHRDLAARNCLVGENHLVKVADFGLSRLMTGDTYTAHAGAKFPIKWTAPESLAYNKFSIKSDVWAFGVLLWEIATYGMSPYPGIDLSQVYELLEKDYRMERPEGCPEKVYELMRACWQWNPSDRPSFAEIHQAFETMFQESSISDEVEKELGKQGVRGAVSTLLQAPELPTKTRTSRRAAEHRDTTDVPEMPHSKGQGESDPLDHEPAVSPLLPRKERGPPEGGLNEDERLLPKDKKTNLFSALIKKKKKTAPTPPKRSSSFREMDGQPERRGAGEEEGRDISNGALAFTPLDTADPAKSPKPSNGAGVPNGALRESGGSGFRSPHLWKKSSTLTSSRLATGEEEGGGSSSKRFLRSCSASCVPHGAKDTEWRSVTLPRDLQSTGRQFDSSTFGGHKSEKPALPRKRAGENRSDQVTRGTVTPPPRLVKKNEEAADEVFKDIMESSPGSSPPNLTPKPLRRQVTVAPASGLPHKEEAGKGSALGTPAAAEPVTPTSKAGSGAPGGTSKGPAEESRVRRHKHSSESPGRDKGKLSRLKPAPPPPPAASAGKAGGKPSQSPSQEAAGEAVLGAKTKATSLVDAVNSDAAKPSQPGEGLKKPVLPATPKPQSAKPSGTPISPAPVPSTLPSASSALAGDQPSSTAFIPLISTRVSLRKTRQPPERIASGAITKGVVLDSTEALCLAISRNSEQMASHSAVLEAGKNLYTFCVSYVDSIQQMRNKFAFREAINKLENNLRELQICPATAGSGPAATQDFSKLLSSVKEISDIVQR
Sequence of UniProt Q8IW41 (whole entry, looked up): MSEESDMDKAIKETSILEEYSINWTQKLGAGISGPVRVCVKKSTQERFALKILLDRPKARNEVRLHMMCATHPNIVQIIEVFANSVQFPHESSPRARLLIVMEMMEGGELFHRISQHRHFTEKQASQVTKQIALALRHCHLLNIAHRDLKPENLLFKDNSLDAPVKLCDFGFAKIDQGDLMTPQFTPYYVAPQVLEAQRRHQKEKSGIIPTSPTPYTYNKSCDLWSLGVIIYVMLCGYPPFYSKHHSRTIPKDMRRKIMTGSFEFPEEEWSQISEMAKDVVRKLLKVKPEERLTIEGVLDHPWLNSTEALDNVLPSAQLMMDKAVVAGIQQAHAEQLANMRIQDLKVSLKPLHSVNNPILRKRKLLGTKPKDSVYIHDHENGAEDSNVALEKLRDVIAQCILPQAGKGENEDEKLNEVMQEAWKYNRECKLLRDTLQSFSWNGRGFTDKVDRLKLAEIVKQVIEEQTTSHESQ

Series 1
Species: human
Sample: microsomes or S9
Concentration: 2 µM
Time: 0.5 h
Measurement: remaining compound
Structure (SMILES) = O=C(Nc1nccs1)c1cc2ccc3cccnc3c2[nH]1; value = 23.4%
Structure (SMILES) = CS(=O)(=O)NCC(=O)N1Cc2ccccc2C(c2ccccc2)C1 (stereo not shown); value = 96.3%
Structure (SMILES) = Cc1cc(C)n(-c2nc3cc(Cl)ccc3nc2N2CCN(c3ccccn3)CC2)n1; value = 2.8%
Structure (SMILES) = COC(=O)C1C(C(=O)OC)C2(OC(c3ccccc3)=CC2=O)C12OC(c1ccccc1)=CC2=O (stereo not shown); value = 22%

Series 2
SMILES: Cc1ccc(NC(=O)c2ccnc(C(F)(F)F)c2)cc1-c1cc(OCCO)nc(N2CCOCC2)c1
Method: competitive binding panel
Concentration: 1 µM
Reference: vehicle
Measurement: remaining binding
target = Ephrin type-B receptor 4 (EPHB4, Homo sapiens, UniProt P54760); value = 87%
target = Phosphatidylinositol 4-phosphate 5-kinase type-1 alpha (PIP5K1A, Homo sapiens, UniProt Q99755); value = 93%
target = Fibroblast growth factor receptor 3 (FGFR3, Homo sapiens, UniProt P22607); value = 90%
target = MAP kinase-activated protein kinase 5 (MAPKAPK5, Homo sapiens, UniProt Q8IW41); value = 100%

Other studies, line by line
SMILES = Cn1cncc1[C@@](O)(COc1ccc(C#N)cc1-c1ccc(OC(F)(F)F)cc1)c1ccc(C#N)cc1; tested on = Tyrosine-protein kinase ABL1, phosphorylated (ABL1, Homo sapiens, UniProt P00519, F317I); assay = binding; conditions = 1 µM; measurement = remaining binding; value = 88%
SMILES = CC(C)n1cnc(-c2ccc(F)cc2)c1-c1ncc(C(=O)Nc2ccc(N3CCN(C)CC3)cc2)[nH]1; test system = IPF patients; conditions = 30 mg once daily, adverse event; measurement = Gastritis incidence; value = 0%

Repeated from above (other studies, line by line):
SMILES = CC(C)n1cnc(-c2ccc(F)cc2)c1-c1ncc(C(=O)Nc2ccc(N3CCN(C)CC3)cc2)[nH]1; test system = IPF patients; conditions = 30 mg once daily, adverse event; measurement = Gastritis incidence; value = 0%
